Earlier results, collected from citations in different studies.
Lines come from different studies, so protocols differ.

Compound | test | conditions | pKa
N[C@@H]1C[C@H]1c1ccccc1 | – | – | 8.5
c1c[nH]cn1 | – | – | 14.4
CC(C)C[C@H](NC(=O)CNC(=O)c1cc(Cl)ccc1Cl)B(O)O | – | – | 8.2
O=S(=O)(O)C(F)(F)C(F)(F)C(F)(F)C(F)(F)C(F)(F)C(F)(F)C(F)(F)C(F)(F)F | ESI-MS, literature value | – | < 1
CNC(C)Cc1ccc2c(c1)OCO2 (stereo not shown) | – | basic | 10.1
CCCCCCCCCCCCOS(=O)(=O)[O-].[Na+] | – | – | -1.5
Oc1c(Cl)cc(Cl)c(Cl)c1Cc1c(O)c(Cl)cc(Cl)c1Cl | – | phenol group | ~5
CCN(CC)C(=O)[C@@H]1C=C2c3cccc4[nH]cc(c34)C[C@H]2N(C)C1 | – | – | 6.37
O=C(O)C(F)(F)C(F)(F)C(F)(F)C(F)(F)C(F)(F)C(F)(F)C(F)(F)F | differential refractometry, literature value | – | 2.8
CCCSc1ccc2nc(NC(=O)OC)[nH]c2c1 | – | – | 4.27

A few entries again:
Compound | test | conditions | pKa
c1c[nH]cn1 | – | – | 14.4
